Measured values pooled from the literature.
Each line is one published result; not all experiments were run side by side. Numbers after ± are the reported error.
CACNA1C: Voltage-dependent L-type calcium channel subunit alpha-1C (CACNA1C, Homo sapiens, UniProt Q13936)
SRC: Proto-oncogene tyrosine-protein kinase Src (SRC, Homo sapiens, UniProt P12931)
GRPR: Gastrin-releasing peptide receptor (GRPR, Homo sapiens, UniProt P30550)
Proteasome component C5/PSMB5: Proteasome component C5/PSMB5 (Homo sapiens, UniProt P20618+P28074)

SMILES | target | test | system | conditions | IC50
O=C(N[C@@H](Cc1ccccc1)C(=O)N[C@@H](C[C@H]1CCNC1=O)C(=O)C(=O)NC1CC1)OCc1ccccc1 | Genome polyprotein, 3C protease (rhinovirus B14, UniProt P03303) | 3C protease activity, inhibitor, FRET |  |  | 0.085 ± 0.02 µM
CN1CCCC2(CCN(c3cc(-c4ccccc4)nc4ccnn34)C2)C1=O (centres unmarked) | Transcriptional enhancer factor TEF-3, YAP-binding domain (TEAD4, Homo sapiens, UniProt Q15561) |  |  |  | 0.243 µM
CN(c1ccccc1)S(=O)(=O)c1cccc(C(=O)N2CCN(C(=O)Cc3ccc(F)cc3)CC2)c1 | CACNA1C | calcium signal, fluorescence |  |  | 2.52 µM
CCCC[C@H](NC(=O)CNC(=O)CNC(=O)CNC(=O)CNC(=O)CNC(=O)CS)C(=O)N[C@H]1CC(=O)NCCCC[C@@H](C(N)=O)NC(=O)[C@H](Cc2c[nH]c3ccccc23)NC(=O)[C@H](CCCNC(=N)N)NC(=O)[C@@H](Cc2ccccc2)NC(=O)[C@H](Cc2c[nH]cn2)NC1=O | Mc1r (Mus musculus, UniProt Q01727) | ligand displacement, radioligand |  |  | 0.001 µM
CCCCCCCCCCCCCCCC(=O)OCCN1CCN(c2cc(Nc3ncc(C(=O)Nc4c(C)cccc4Cl)s3)nc(C)n2)CC1 | SRC | enzyme activity, inhibitor |  |  | 0.075 µM
COC(=O)[C@H](Cc1c[nH]c2ccccc12)NCc1cc2ccccc2nc1OC | ATP synthase subunit c, whole ATP synthase complex (atpE, Pseudomonas aeruginosa, UniProt Q9HT15) | ATP synthesis, inhibitor | Pseudomonas aeruginosa, inverted membrane vesicles | 10 min, added: NADH | 43.7 µM
Cn1cc(-c2cc(N3CCCCS3(=O)=O)ccc2N[C@H]2CC[C@@](C)(O)CC2)c2cc[nH]c2c1=O | Bromodomain-containing protein 4, BD1 (BRD4, Homo sapiens, UniProt O60885) |  |  |  | 0.0026 ± 0.056 µM
N=C(N)NCCC[C@@H](NC(=O)CCCCCNC(=O)c1ccc(-c2ccnc(N)n2)s1)C(=O)NCCCCCC(=O)N[C@H](CCCNC(=N)N)C(=O)N[C@H](CCCNC(=N)N)C(=O)N[C@H](CCCNC(=N)N)C(=O)N[C@H](CCCNC(=N)N)C(=O)N[C@H](CCCNC(=N)N)C(=O)N[C@H](CCCNC(=N)N)C(=O)N[C@H](CCCCN)C(N)=O | cGMP-dependent protein kinase 1, isoform alpha (PRKG1, Bos taurus, UniProt P00516) | kinase activity, inhibitor, radiometric |  | added: ATP 100 µM and peptide 11 µM and cGMP | 0.00145 µM
CN(C)c1ccc2c3c(cccc13)C(=O)N(C(CS)C(=O)O)C2=O (centres unmarked) | VIM-2 (Escherichia coli, UniProt Q5U7L7) | enzyme activity, inhibitor |  | pH 7 | 0.69 µM
COc1cc2c(cc1OC)-c1cc3ccc(OC)c(OC)c3c[n+]1CC2 | Pancreatic alpha-amylase (Homo sapiens, UniProt P04746) | enzyme activity, inhibitor |  |  | 230 µM
O=C(NCCCN1CCC(Cc2ccccc2)CC1)c1ccc(-c2ccccc2)cc1 | SLC6A2 (Homo sapiens, UniProt P23975) | transporter uptake, inhibitor, radiometric |  |  | 0.01 to 2.12 µM
Cc1cc(CN(CCCCCCC(=O)NO)Cc2ccc(F)c(C)c2)ccc1F | HDAC2 (Homo sapiens, UniProt Q92769) | enzyme activity, inhibitor, fluorescence |  |  | 15 µM
O=C(Nc1ccc(C(=O)Nc2ccc(C(=O)Nc3ccc(S(=O)(=O)O)c4cc(S(=O)(=O)O)cc(S(=O)(=O)O)c34)cc2)cc1)Nc1ccc(C(=O)Nc2ccc(C(=O)Nc3ccc(S(=O)(=O)O)c4cc(S(=O)(=O)O)cc(S(=O)(=O)O)c34)cc2)cc1 | Myeloblastin (Homo sapiens, UniProt P24158) | enzyme activity, inhibitor, absorbance |  | pH 7.4 | 34.2 µM
O=c1c2ccccc2on1-c1ccccc1 | HDAC11 (Homo sapiens, UniProt Q96DB2) | enzyme activity, inhibitor |  |  | > 10 µM
Cc1cc2c(NC(=O)N[C@@H]3CC(C)(C)Oc4cc(C(F)(F)F)ccc43)cccc2cn1 | TRPM8 (Homo sapiens, UniProt Q7Z2W7) | cell-based |  |  | 30 µM
CN(CC(=O)c1ccc2[nH]c(=O)[nH]c2c1)Cc1ccco1 | Activation-induced cytidine deaminase (Danio rerio, UniProt Q5YF88) | enzyme activity, inhibitor |  | 25 °C | > 1000 µM
O=C(NCCCCn1ccc2ccc(F)cc21)OC(C(F)(F)F)C(F)(F)F | MGLL (Homo sapiens, UniProt Q99685) | enzyme activity, inhibitor |  |  | 10 µM
CNC(=O)C1CCN(c2cc(C)ccc2NC(=O)c2ccc(-c3cc(O)ccc3C)c(C)c2)CC1 | EPHA5 (Homo sapiens, UniProt P54756) | target engagement in cells, BRET |  |  | 0.015 µM
C[C@H](OP(=O)(O)O)[C@H]1NC(=O)[C@@H](CCCNC(=N)N)NC(=O)[C@@H](CCCNC(=N)N)NC(=O)[C@H](CCCNC(=N)N)NC(=O)[C@H](Cc2ccc3ccccc3c2)NC(=O)[C@H](Cc2ccc3ccccc3c2)NC(=O)[C@@H]2CCCCN2C1=O | PIN1 (Homo sapiens, UniProt Q13526) | fluorescence anisotropy competition |  | added: FITC-labelled probe | 3.4 ± 0.81 µM
CC[C@H](C)[C@H](NC(=O)[C@H](Cc1ccccc1)NC(=O)[C@H](CC(=O)O)NC(=O)[C@H](CCCNC(=N)N)NC(=O)[C@H](C)NC(=O)[C@H](C)NC(=O)[C@H](CC(C)C)NC(=O)[C@H](CC(N)=O)NC(=O)[C@H](CC(=O)O)NC(=O)[C@H](CC(C)C)NC(=O)[C@@H](NC(=O)[C@@H](NC(=O)[C@H](CC(N)=O)NC(=O)[C@H](CCSC)NC(=O)[C@H](CCC(=O)O)NC(=O)[C@H](CC(=O)O)NC(=O)[C@H](CO)NC(=O)[C@H](Cc1ccccc1)NC(=O)[C@H](CO)NC(=O)[C@H](C)NC(=O)[C@H](CC(=O)O)NC(=O)[C@H](C)NC(=O)[C@@H](N)Cc1c[nH]cn1)[C@@H](C)O)[C@@H](C)CC)C(=O)N[C@@H](CC(N)=O)C(=O)N[C@@H](Cc1c[nH]c2ccccc12)C(=O)N[C@@H](CC(C)C)C(=O)N[C@H](C(=O)N[C@@H](CCC(N)=O)C(=O)N[C@H](C(=O)N[C@@H](CCCCN)C(=O)N[C@H](C(=O)N[C@H](C(=O)N[C@@H](CC(=O)O)C(N)=O)[C@@H](C)O)[C@@H](C)CC)[C@@H](C)O)[C@@H](C)CC | GLP2R (Homo sapiens, UniProt O95838) |  |  |  | 0.028 µM
C[N+](C)(CC(=O)Nc1cccc(C(F)(F)F)c1)CC(=O)Nc1cccc(C(F)(F)F)c1 | TRPV4 (Homo sapiens, UniProt Q9HBA0) | calcium signal, antagonist |  |  | 0.145 µM

SMILES | target | test | system | conditions | IC50
CCCC[C@H](NC(=O)[C@H](Cc1ccccc1)NC(=O)[C@H](Cc1c[nH]cn1)NC(=O)CCNC(=O)[C@@H](NC(=O)[C@H](C)NC(=O)[C@H](Cc1c[nH]c2ccccc12)NC(=O)[C@H](CC(N)=O)NC(=O)[C@H](N)Cc1ccc(O)cc1)C(C)C)C(N)=O | GRPR | ligand displacement in cells, radioligand |  |  | 0.001 µM
CC(=O)C12NC(C)(C)CC1(C)C(=O)C1=C2c2c(c3c4n2C(C)(C)CC2=C4C4(CC(C)(C)NC(C)(C4)C2=O)CC3(C)C)C(=O)C(C)(C)N1 (single isomer, unassigned; (+)) | Voltage-dependent P/Q-type calcium channel subunit alpha-1A (Homo sapiens, UniProt O00555) | ion current, inhibitor, patch clamp |  |  | 10.4 µM
Cc1ccc(CNC(=O)[C@@H](NC(=O)[C@H](CCc2ccccc2)NC(=O)[C@@H](NC(=O)c2cnc(C)cn2)C(C)(C)C)C(C)C)cc1 | Proteasome component C5/PSMB5 | β5 activity, inhibitor |  | added: Suc-LLVY-AMC, PA28α-activated | 0.159 µM
O=C1OC2(c3ccccc31)c1cc([N+](=O)[O-])c(O)c(Br)c1Oc1c2cc([N+](=O)[O-])c(O)c1Br | Genome polyprotein, NS2B-NS3 interaction (dengue virus type 2, UniProt P29990) | NS2B-NS3 interaction, inhibitor, split luciferase complementation |  |  | 13 µM
CC(C)NC(=O)[C@H](CCc1ccccc1)NC(=O)[C@H](CC(=O)NCC(C)(C)C)NC(=O)CCc1ccccc1 | Proteasome component C5/PSMB5 | inhibitor |  |  | 0.011 µM
COC(=O)N1CCC(CN2CCC(CNC(=O)c3cccc4[nH]c(C(C)C)nc34)CC2)CC1 | SLC22A2 (Homo sapiens, UniProt O15244) | transporter uptake, inhibitor |  |  | > 10 µM
CC[C@H](C)[C@@H]1NC(=O)[C@@H](CCC(N)=O)NC(=O)CNC(=O)[C@H](Cc2ccc(O)cc2)N=C[C@H](CC(C)C)NC(=O)[C@H](C(C)C)NC(=O)[C@H](CO)NC1=O | Proteasome component C5/PSMB5 | enzyme activity, inhibitor |  |  | 0.096 µM
Cc1cc(N2CCC(CO)(C3CC3)C2=O)cc(C(=O)NCc2cc(F)cc(-c3cnn(C)c3)c2)n1 (centres unmarked) | Proline--tRNA ligase (Plasmodium falciparum, UniProt Q8I5R7) | enzyme activity, inhibitor, absorbance |  |  | 0.0735 µM
N=C(N)NCCC[C@@H]1NC(=O)[C@H](Cc2c[nH]c3ccccc23)NC(=O)[C@H](CCCNC(=N)N)NC(=O)[C@H](Cc2c[nH]c3ccccc23)NC(=O)[C@H](CCCNC(=N)N)NC(=O)[C@H](Cc2c[nH]c3ccccc23)NC(=O)[C@H](CCCNC(=N)N)NC(=O)[C@H](Cc2c[nH]c3ccccc23)NC(=O)[C@H](CCCNC(=N)N)NC(=O)[C@H](Cc2c[nH]c3ccccc23)NC(=O)[C@H](CCCNC(=N)N)NC(=O)[C@H](Cc2c[nH]c3ccccc23)NC(=O)[C@H](CCCNC(=N)N)NC(=O)[C@H](Cc2c[nH]c3ccccc23)NC(=O)[C@H](CCCNC(=N)N)NC(=O)[C@H](Cc2c[nH]c3ccccc23)NC1=O | SRC | enzyme activity, inhibitor, radiometric |  |  | 0.33 µM
CCNC(=O)[C@H](CC(C)C)NC(=O)[C@H](Cc1c[nH]cn1)NC(=O)CNC(=O)[C@@H](NC(=O)[C@H](C)NC(=O)[C@H](Cc1c[nH]c2ccccc12)NC(=O)[C@H](CCC(N)=O)NC(=O)[C@@H](Cc1ccccc1)NC(=O)C(C)F)C(C)C (some centres unmarked) | GRPR | ligand displacement, radioligand |  |  | 0.0557 µM
CC(C)C[C@@H](CN[C@H](Cc1ccccc1)C(N)=O)NC(=O)[C@H](Cc1c[nH]cn1)NC(=O)CNC(=O)[C@@H](NC(=O)[C@H](C)NC(=O)[C@H](Cc1c[nH]c2ccccc12)NC(=O)[C@H](CCC(N)=O)NC(=O)[C@H](N)Cc1ccccc1)C(C)C | GRPR | inositol phosphate generation, antagonist | HuTu80 | added: GRP | 0.24 ± 0.026 µM
CSCC[C@H](NC(=O)[C@H](CC(C)C)NC(=O)[C@H](CO)NC(=O)CNC(=O)[C@@H](NC(=O)[C@H](C)NC(=O)[C@H](Cc1c[nH]c2ccccc12)NC(=O)[C@H](CC(C)C)NC(=O)[C@@H]1CCC(=O)N1)C(C)C)C(N)=O | GRPR | ligand displacement in cells, radioligand |  |  | 0.524 µM
Cc1cccc(C)c1NC(=O)CC(C)NCc1cccc2ccccc12 (centres unmarked) | SCN4A (Homo sapiens, UniProt P35499, F1586C) | tonic block of sodium current, whole-cell patch clamp | HEK293 | 0.1 Hz stimulation | 44 ± 4 µM
COc1ccc(NC(=O)CSc2nc(-c3ccc(Cl)cc3)cc(C(F)(F)F)c2C#N)cc1 | TAAR1 (Homo sapiens, UniProt Q96RJ0) |  |  |  | > 10 µM
N=C(NCCCCC(N)C(N)=O)NCCSCC1OC(n2cnc3c(N)ncnc32)C(O)C1O (centres unmarked) | SETD7 (Homo sapiens, UniProt Q8WTS6) | enzyme activity, inhibitor, fluorescence |  |  | > 100 µM
CCOc1ccc(NS(=O)(=O)c2ccc(C)c(C(=O)N3CCOC(c4ccccc4)C3)c2)cc1 (centres unmarked) | CACNA1C | calcium signal, fluorescence |  |  | 9.61 µM
CC(C)CCC[C@@H](C)[C@H]1CC[C@H]2[C@@H]3CC=C4C[C@@H](OS(=O)(=O)O)CC[C@]4(C)[C@H]3CC[C@]12C | Prothrombin (F2, Homo sapiens, UniProt P00734) | enzyme activity, inhibitor |  | pH 7.4, 25 °C, 0.02% Tween 80, added: Spectrozyme TH | 280 ± 7.1 µM
Cc1[nH]c2ccccc2c1CCNC(=O)c1ccccc1F | act2/arp2 (Schizosaccharomyces pombe, UniProt P32390+Q9UUJ1) | actin polymerization, inhibitor, pyrenyl-actin polymerization |  | added: N-WASp VCA | 5 µM
Cc1cc(C)nc(SC(C)C(=O)Nc2ncc(Cc3cccc4ccccc34)s2)n1 (centres unmarked) | SIRT3 (Homo sapiens, UniProt Q9NTG7) | enzyme activity, inhibitor, fluorescence |  |  | > 100 µM
CCC1(CC)C[C@@H](NC(=O)Nc2cccc3c(C)nccc23)c2cc(F)ccc2O1 | TRPV1 (Homo sapiens, UniProt Q8NER1) | calcium influx, antagonist, FLIPR | HEK293 expressing human TRPV1 | added: N-arachidonoyl-dopamine 3 µM | 0.007 µM
